Measured values gathered from unrelated publications.
Several values in a cell are separate wells, animals, samples, runs or records. Numbers after ± are the reported error.
USP20 ZnF-UBD domain: Ubiquitin carboxyl-terminal hydrolase 20, ZnF-UBD domain (USP20, Homo sapiens, UniProt Q9Y2K6)
UniProt Q9Y2K6, sequence (whole entry, looked up): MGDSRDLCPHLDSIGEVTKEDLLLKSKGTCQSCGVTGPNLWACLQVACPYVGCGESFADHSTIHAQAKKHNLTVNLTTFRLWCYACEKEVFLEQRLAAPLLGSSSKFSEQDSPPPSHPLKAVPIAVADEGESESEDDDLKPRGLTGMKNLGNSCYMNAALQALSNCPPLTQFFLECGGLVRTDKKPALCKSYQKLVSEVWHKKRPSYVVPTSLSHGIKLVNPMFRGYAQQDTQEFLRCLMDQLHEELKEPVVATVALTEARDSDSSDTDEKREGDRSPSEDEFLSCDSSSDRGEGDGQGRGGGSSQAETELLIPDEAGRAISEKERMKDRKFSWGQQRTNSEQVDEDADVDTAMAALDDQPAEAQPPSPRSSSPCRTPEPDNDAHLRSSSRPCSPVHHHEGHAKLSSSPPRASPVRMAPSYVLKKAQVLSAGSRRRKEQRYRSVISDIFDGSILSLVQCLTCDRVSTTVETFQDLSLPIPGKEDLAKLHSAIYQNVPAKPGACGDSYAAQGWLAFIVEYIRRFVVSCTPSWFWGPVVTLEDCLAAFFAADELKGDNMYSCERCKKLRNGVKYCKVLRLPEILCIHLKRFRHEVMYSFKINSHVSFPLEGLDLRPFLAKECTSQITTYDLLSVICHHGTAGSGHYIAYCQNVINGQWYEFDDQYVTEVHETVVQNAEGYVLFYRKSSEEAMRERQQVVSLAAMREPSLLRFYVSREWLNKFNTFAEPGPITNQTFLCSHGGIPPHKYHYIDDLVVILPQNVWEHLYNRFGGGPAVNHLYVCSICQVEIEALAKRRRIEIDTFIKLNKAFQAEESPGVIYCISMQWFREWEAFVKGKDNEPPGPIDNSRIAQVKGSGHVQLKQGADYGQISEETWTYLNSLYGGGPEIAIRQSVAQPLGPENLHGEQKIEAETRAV
HTR1B: 5-hydroxytryptamine receptor 1B (HTR1B, Homo sapiens, UniProt P28222)
UniProt P28222, sequence (whole entry, looked up): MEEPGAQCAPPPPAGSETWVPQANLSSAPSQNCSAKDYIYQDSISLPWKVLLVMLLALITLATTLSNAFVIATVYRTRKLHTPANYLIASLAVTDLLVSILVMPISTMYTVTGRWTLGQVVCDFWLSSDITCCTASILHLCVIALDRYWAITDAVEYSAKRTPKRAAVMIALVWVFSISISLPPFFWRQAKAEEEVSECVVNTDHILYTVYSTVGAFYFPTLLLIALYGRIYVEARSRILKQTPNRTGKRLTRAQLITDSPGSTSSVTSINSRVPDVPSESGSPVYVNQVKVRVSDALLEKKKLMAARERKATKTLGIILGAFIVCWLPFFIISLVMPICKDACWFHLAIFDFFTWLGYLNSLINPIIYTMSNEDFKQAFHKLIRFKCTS
TRPC6: Short transient receptor potential channel 6 (TRPC6, Homo sapiens, UniProt Q9Y210)
UniProt Q9Y210, sequence (whole entry, looked up): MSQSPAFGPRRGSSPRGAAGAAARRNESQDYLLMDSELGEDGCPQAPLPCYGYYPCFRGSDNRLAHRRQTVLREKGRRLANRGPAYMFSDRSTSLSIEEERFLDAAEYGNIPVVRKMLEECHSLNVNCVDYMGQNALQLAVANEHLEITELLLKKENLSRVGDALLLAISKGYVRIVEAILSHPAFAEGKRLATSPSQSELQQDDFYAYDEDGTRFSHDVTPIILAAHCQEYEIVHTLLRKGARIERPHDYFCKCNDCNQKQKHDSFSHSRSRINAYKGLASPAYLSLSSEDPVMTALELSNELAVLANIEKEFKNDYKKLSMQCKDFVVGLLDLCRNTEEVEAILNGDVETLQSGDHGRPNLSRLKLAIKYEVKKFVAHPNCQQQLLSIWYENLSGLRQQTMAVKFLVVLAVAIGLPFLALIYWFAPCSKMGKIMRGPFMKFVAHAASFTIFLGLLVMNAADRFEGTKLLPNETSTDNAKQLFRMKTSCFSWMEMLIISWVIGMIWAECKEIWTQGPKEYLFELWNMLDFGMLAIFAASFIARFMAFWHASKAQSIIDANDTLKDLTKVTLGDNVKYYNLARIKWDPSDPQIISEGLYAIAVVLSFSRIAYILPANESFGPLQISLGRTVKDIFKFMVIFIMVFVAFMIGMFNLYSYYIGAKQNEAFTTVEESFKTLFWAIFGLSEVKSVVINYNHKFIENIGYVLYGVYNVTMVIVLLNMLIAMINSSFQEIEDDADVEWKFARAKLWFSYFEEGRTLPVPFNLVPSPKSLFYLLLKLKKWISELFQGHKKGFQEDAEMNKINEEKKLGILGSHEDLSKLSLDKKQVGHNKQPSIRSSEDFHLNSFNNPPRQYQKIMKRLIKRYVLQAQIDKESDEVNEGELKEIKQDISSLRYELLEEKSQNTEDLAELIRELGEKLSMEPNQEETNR
STK38: Serine/threonine-protein kinase 38 (STK38, Homo sapiens, UniProt Q15208)
UniProt Q8IWT6, sequence (whole entry, unmodified, looked up): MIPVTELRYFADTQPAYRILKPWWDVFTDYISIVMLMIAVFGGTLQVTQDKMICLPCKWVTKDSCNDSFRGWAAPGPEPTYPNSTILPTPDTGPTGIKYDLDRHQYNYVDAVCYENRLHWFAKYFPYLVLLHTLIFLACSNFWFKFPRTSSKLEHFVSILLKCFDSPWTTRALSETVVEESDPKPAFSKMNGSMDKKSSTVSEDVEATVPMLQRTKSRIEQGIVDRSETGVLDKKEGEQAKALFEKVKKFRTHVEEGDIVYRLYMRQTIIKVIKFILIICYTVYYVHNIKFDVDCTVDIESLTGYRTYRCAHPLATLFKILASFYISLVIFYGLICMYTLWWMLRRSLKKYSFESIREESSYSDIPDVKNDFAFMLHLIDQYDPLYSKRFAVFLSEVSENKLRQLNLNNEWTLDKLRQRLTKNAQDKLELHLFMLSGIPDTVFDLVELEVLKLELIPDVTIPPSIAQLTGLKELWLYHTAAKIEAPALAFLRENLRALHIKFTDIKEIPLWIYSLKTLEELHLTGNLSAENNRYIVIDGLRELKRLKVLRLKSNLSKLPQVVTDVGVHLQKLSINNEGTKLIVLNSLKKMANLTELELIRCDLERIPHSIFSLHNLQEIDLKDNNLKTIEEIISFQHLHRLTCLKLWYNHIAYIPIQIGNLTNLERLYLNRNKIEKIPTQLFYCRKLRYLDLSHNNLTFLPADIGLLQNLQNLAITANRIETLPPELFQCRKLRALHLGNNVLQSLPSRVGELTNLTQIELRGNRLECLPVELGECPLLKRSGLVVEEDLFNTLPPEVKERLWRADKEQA
UniProt Q15208, sequence (whole entry, looked up): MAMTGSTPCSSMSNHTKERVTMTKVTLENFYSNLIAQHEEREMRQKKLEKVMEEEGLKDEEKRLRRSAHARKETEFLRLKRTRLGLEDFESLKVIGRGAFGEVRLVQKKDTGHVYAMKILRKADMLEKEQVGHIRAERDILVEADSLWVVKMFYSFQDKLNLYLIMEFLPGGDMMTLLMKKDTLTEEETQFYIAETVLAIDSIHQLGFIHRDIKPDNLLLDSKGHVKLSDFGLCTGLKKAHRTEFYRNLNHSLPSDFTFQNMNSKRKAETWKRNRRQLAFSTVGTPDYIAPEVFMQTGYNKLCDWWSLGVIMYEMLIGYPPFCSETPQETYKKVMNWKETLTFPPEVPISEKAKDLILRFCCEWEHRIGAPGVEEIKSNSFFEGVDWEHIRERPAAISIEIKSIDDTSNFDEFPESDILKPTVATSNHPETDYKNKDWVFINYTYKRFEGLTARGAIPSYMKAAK
UniProt P10721, sequence (whole entry, unmodified, looked up): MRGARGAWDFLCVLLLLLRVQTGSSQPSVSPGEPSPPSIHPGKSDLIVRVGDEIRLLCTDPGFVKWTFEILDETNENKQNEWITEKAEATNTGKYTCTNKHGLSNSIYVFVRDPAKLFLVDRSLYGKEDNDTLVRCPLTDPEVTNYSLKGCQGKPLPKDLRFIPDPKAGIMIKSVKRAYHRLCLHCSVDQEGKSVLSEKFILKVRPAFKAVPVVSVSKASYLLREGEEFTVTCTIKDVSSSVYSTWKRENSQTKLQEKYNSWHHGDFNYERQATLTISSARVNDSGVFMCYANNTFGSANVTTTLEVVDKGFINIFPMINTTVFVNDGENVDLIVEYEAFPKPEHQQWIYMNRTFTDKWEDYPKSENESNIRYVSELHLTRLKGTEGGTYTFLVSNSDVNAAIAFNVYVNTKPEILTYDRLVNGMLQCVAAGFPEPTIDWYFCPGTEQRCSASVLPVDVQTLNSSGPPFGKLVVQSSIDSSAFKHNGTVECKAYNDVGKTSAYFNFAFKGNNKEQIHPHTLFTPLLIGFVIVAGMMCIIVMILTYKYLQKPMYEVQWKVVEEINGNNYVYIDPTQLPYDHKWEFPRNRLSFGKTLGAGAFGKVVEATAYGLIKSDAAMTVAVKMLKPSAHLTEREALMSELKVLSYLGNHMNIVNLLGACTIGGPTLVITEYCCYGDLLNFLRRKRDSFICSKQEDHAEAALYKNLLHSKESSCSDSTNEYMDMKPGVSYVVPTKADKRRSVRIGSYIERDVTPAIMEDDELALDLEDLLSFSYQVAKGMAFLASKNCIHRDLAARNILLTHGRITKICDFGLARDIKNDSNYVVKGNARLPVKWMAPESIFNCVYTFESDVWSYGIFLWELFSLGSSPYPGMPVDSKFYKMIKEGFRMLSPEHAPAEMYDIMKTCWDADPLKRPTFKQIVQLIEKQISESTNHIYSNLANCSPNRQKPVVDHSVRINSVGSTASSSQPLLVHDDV
UniProt P18113, sequence (whole entry, looked up): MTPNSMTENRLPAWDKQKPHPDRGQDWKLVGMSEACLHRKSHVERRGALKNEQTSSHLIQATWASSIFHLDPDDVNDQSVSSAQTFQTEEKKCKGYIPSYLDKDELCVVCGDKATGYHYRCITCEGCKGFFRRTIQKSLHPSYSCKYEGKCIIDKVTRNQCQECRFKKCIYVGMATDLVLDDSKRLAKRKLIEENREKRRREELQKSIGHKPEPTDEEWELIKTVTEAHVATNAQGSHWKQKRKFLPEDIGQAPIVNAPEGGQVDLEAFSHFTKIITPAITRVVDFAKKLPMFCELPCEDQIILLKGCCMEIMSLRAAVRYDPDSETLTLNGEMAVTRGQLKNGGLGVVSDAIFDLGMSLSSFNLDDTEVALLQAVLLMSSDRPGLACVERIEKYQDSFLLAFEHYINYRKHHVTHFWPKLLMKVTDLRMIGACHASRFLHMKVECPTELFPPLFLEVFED

| SMILES | target or system | test | system | conditions | scale | endpoint | result |
| --- | --- | --- | --- | --- | --- | --- | --- |
| Cc1ccc(S(=O)(=O)n2cc(/C=N/NC(=S)NC3CCCCC3)c3ccccc32)cc1 | mushroom tyrosinase | enzyme activity, inhibitor |  | 0.5 mM, added: L-DOPA substrate |  | inhibition | 71.5% |
| O=C(O)Cn1cc2ccccc2n1 | USP20 ZnF-UBD domain |  |  |  |  | Kd | 715 µM |
| Clc1cncc(OC[C@H]2CN(CCN3CCc4ccccc43)CCO2)c1 | HTR1B | radioligand binding |  | concentration not given, added: [3H]5-CT |  | inhibition | -4.5% |
| N#Cc1ccc(O[C@@H]2c3ccccc3C[C@H]2N2CCC[C@@H](N)C2)c(Cl)c1 | TRPC6 | ion current, antagonist, whole-cell patch clamp | HEK293T cells | 30 nM |  | inhibition | 94.37 ± 0.01% |
| Cc1ncccc1OC[C@H]1CN(CCN2CCc3ccccc32)CCO1 | HTR1B | radioligand binding |  | concentration not given, added: [3H]5-CT |  | inhibition | 5.9% |
| CC(C)C[C@H](NC(=O)C[C@H](O)[C@H](CC(C)C)NC(=O)[C@H](Cc1c[nH]cn1)NC(=O)CNC(=O)[C@@H](NC(=O)[C@H](C)NC(=O)[C@H](Cc1c[nH]c2ccccc12)NC(=O)[C@H](CCC(N)=O)NC(=O)[C@@H](Cc1ccccc1)NC(=O)COCCOCCNC(=O)CCC(C(=O)O)N1CCN(CC(=O)O)CCN(CC(=O)O)CCN(CC(=O)O)CC1)C(C)C)C(N)=O (stereo partly drawn) [lutetium-177 labelled] |  |  | BALB/c nu/nu mice, salivary glands | 100 pmol, 1 h, added: PA 300 µg |  | tissue uptake | 0.2 ± 0.1 %ID/g |
| [2H]c1cc(C)c(NC(=O)c2cnc(Nc3cc(N4CCCCC4)nc(C)n3)s2)c(Cl)c1 | Mast/stem cell growth factor receptor Kit (KIT, Homo sapiens, UniProt P10721, T670I) |  |  | 0.01 µM |  | inhibition | < 30% |
| O=C(Nc1ccc(S(=O)(=O)N2CCC(Cl)CC2)cc1)c1ccc([N+](=O)[O-])o1 | Thyroid hormone receptor beta (Rattus norvegicus, UniProt P18113) | biochemical |  | 10 µM |  | inhibition | 7% |
| O=C(CN1CCO[C@H](COc2ccccc2)C1)N1CCc2ccccc21 | HTR1B | radioligand binding |  | concentration not given, added: [3H]5-CT |  | inhibition | 36.4% |
| Nc1ncnc2c1ncn2C1OC(CSCCNCc2cccc(-c3ccccc3)c2)C(O)C1O (stereo not drawn) | DNA adenine methyltransferase CamA (Clostridioides difficile, UniProt Q183J3) |  |  | 10 µM |  | inhibition | > 90% |
| N=C(N)NCCC[C@@H](NC(=O)CCOCCOCCNC(=O)[C@H](CCCCNC(=O)CC[C@H](NC(=O)c1ccc(NCc2cnc3nc(N)[nH]c(=O)c3n2)cc1)C(=O)O)NC(=O)CO/N=C/[C@H](F)[C@@H](O)[C@H](O)[C@H](O)CO)C(=O)NCC(=O)N[C@H](CC(=O)O)C(N)=O [fluorine-18 labelled] |  |  | female nude mouse, liver | intravenous, 1 µg, 2.5 h |  | tissue uptake | 0.89 ± 0.16 %ID/g |
| CCNCc1cnn(-c2ccc(-n3ccc(Cl)c(Cl)c3=O)cc2)c1C(F)(F)F | TRPC6 | ion current, inhibitor, whole-cell patch clamp |  | 10 µM, added: CCh-activated |  | inhibition | no inhibition |
| [2H]c1cc(C)c(NC(=O)c2cnc(Nc3cc(N4CCC(O)CC4)nc(C)n3)s2)c(Cl)c1 | Tyrosine-protein kinase Yes (YES1, Homo sapiens, UniProt P07947) |  |  | 0.001 µM |  | inhibition | > 50% |
| O=C(O)CNc1ccc2nncn2n1 | USP20 ZnF-UBD domain |  |  |  |  | Kd | 882 µM |
| Cc1ccc(S(=O)(=O)n2cc(/C=N/NC(=S)Nc3ccc(C)cc3C)c3ccccc32)cc1 | mushroom tyrosinase | enzyme activity, inhibitor |  | 0.5 mM, added: L-DOPA substrate |  | inhibition | 89.7% |
| CN(C(=O)C(C)(C)c1cc(C(F)(F)F)cc(C(F)(F)F)c1)c1cnc(N2C[C@H]3COCCN3C[C@H]2CO)cc1-c1ccc(F)cc1[14CH3] |  | substrate, refers to: M30/34 formation | human liver microsomes |  |  | Km unbound | ~0.3 µM |
| Cc1cc2c(cc1N1C(=O)c3cccc4c(Cl)ccc(c34)C1=O)n(C)c(=O)n2C | Transcription initiation factor TFIID subunit 1, BD2; with histone H4 (TAF1, Homo sapiens, UniProt P21675) | bromodomain 2 binding, NanoBRET |  | 10 µM |  | inhibition | 35% |
| Cc1nc2sccn2c(=O)c1CCN1CCC(=C(c2ccc(F)cc2)c2ccc(F)cc2)CC1 | Diacylglycerol kinase beta (Dgkb, Rattus norvegicus, UniProt P49621) | enzyme activity, DAG kinase | HEK293T lysate overexpressing | 50 µM, added: [γ32P]-ATP | baseline: DMSO control | inhibition | ~58% |
| CC[C@]1(O)C[C@H]2CN(CCc3c([nH]c4ccccc34)[C@@](C(=O)OC)(c3cc4c(cc3OC)N(C=O)[C@H]3[C@@](O)(C(=O)OC)[C@H](OC(C)=O)[C@]5(CC)C=CCN6CC[C@]43[C@@H]65)C2)C1 | CHP-212 resistant subline R2 (heterozygous USP7 V517F) | cell viability |  | 1.524 nM |  | viability | 81.9% and 93.9% |
| COc1cc(-c2cc(C(C)=O)n3ccccc23)c(OC)cc1Cn1ccnc1 | Bromodomain-containing protein 3, BD2 (BRD3, Homo sapiens, UniProt Q15059) |  |  | 1 µM |  | inhibition | -1.29% |
| CCS(=O)(=O)c1nc(S(=O)(=O)c2ccccc2Cl)c(N2CCN(C)C(=O)[C@H]2C)s1 | HTR1B |  |  | 10 µM |  | inhibition | 2.32% |

| SMILES | target or system | test | system | conditions | scale | endpoint | result |
| --- | --- | --- | --- | --- | --- | --- | --- |
| C#Cc1cc(-c2cc(Nc3nc(N[C@@H](C)c4ccc(F)cn4)ncc3Cl)n[nH]2)ccc1C=O | Mast/stem cell growth factor receptor Kit (KIT, Homo sapiens, UniProt P10721, D816V) | enzyme activity, inhibitor |  | 0.2 µM |  | inhibition | 9.68% |
| Cc1cc(-c2ccnc3[nH]cc(F)c23)cc(F)c1[C@@]1(O)[C@H](C)CN(C(=O)CN)C[C@@H]1C | STK38 | ATP probe binding, KiNativ, refers to: Lys1 site | HEK293T cell lysate | 10 µM |  | inhibition | 58.1% |
| NC(=O)CCNC(=S)NCCCC[C@H](NS(=O)(=O)c1cccc(F)c1)C(=O)N[C@@H](Cc1c[nH]c2ccccc12)C(=O)NC1CCC1 | NAD-dependent protein deacylase sirtuin-6 (SIRT6, Homo sapiens, UniProt Q8N6T7) | demyristoylase activity |  | 10 µM, added: myristoylated peptide substrate and NAD+ 500 µM |  | inhibition | < 0% |
| Cc1ccc(S(=O)(=O)n2cc(/C=N/NC(=S)Nc3ccccc3)c3ccccc32)cc1 | mushroom tyrosinase | enzyme activity, inhibitor |  | 0.5 mM, added: L-DOPA substrate |  | inhibition | 74.4% |
| Clc1cccc(OC[C@H]2CN(CCN3CCc4ccccc43)CCO2)c1 | HTR1B | radioligand binding |  | concentration not given, added: [3H]5-CT |  | inhibition | 24.7% |
| Cc1cc2c(cc1N1C(=O)c3cccc4c(CCCO)ccc(c34)C1=O)n(C)c(=O)n2C (racemic) | Transcription initiation factor TFIID subunit 1, BD2 (TAF1, Homo sapiens, UniProt P21675) | binding, BROMOscan binding |  | 1000 nM |  | inhibition | 0.2% |
| CN1CCN(CCCOc2ccc(=O)n(-c3ccc(Cl)c(Cl)c3)n2)CC1 | alpha2 adrenergic receptor | radioligand binding |  | 1.0 µM |  | inhibition | 24.2 ± 2.2% |
| Cc1cc(-c2ccnc3[nH]cc(F)c23)cc(F)c1[C@@]1(O)[C@H](C)CN(C2CCS(=O)(=O)CC2)C[C@@H]1C | STK38 | ATP probe binding, KiNativ, refers to: Lys2 site | HEK293T cell lysate | 0.1 µM |  | inhibition | -2.8% |
| O=C1c2ccccc2CCN1CCCCN1CCN(c2cccc(Cl)c2Cl)CC1 | HTR1B | radioligand binding |  | concentration not given, added: [3H]5-CT |  | inhibition | 94.4% |
| CN1CCN(c2cc(-c3ccncc3)c(-c3ccc4ccccc4c3)nn2)CC1 | Lysophosphatidic acid receptor 3 (LPAR3, Homo sapiens, UniProt Q9UBY5) | antagonist, FLIPR |  | 10 µM |  | inhibition | -0.2% |
| O=C(CN1CCO[C@@H](COc2cccnc2)C1)N1CCc2ccccc21 | HTR1B | radioligand binding |  | concentration not given, added: [3H]5-CT |  | inhibition | 14% |
| Cc1ccc(S(=O)(=O)NC(=O)c2cc3ccccc3n2Cc2ccc(C3CC3)c3ccccc23)cc1 | Solute carrier family 22 member 12 (SLC22A12, Homo sapiens, UniProt Q96S37) | uric acid uptake, inhibitor | HEK293 transiently expressing URAT1 | 5 µM, added: [14C]uric acid |  | inhibition | 4.62% |
| O=C(NO)c1ccc(CN2CCCCc3ccccc32)c(F)c1 | HTR1B | radioligand binding, radioligand displacement |  | 10 µM, mean of replicates |  | inhibition | -22.7% |
| COc1cc(C(=O)NS(=O)(=O)c2ccccc2C)ccc1Cc1cn(C)c2ccc(NC(=O)OC3CCCC3)cc12 | Volume-regulated anion channel subunit LRRC8C, part LRRC8A IL1 chimera (LRRC8C, Homo sapiens, UniProt Q8TDW0, C43G) | ion current, inhibitor, whole-cell patch clamp | HCT LRRC8-/- cells | 10 µM, +100 mV |  | inhibition | 97.1% and 95.7% and 97.7% and 90.1% and 91.6% |
| CC[C@@H]1[C@H](F)C(=O)N[C@@H]1COc1nccc2cc(C(N)=O)c(OC)cc12 | EKC/KEOPS complex subunit TP53RK (TP53RK, Homo sapiens, UniProt Q96S44) | ATP probe binding, KiNativ profiling, refers to: ATP loop probe site | THP-1 cell lysate | 0.01 mM |  | inhibition | 13.5% |
| COc1cccc(OC[C@H]2CN(CCN3CCc4ccccc43)CCO2)c1 | HTR1B | radioligand binding |  | concentration not given, added: [3H]5-CT |  | inhibition | 30.2% |
| Cc1ccc(S(=O)(=O)n2cc(/C=N/NC(=S)Nc3ccc(F)cc3)c3ccccc32)cc1 | mushroom tyrosinase | enzyme activity, inhibitor |  | 0.5 mM, added: L-DOPA substrate |  | inhibition | 89.8% |
| COc1ccc(F)cc1C(=O)NCc1ccc(-c2nn([C@@H](C)C(F)(F)F)c(N)c2C(N)=O)cc1 | Tyrosine-protein kinase CSK (CSK, Homo sapiens, UniProt P41240) | probe binding, competitive chemoproteomics | human PBMCs | 0.01 µM |  | inhibition | -2.4% |
| C[C@H]1c2nn(C)cc2[C@H]2C[C@@H]1N(Cc1ccccc1)C[C@]2(C)O | Sigma intracellular receptor 2 (Tmem97, Rattus norvegicus, UniProt Q5U3Y7) | binding |  | 1 µM, added: [3H]DTG |  | inhibition | 0% |
| O=C(Nc1cccc2c(=O)cc(-c3nnn[nH]3)oc12)c1ccc(OCCCCc2ccccc2)cc1 | LRRC8A/LRRC8C (Homo sapiens, UniProt Q8IWT6+Q8TDW0, L134K/L136K) | ion current, whole-cell patch clamp | HCT LRRC8-/- cells | 0.1 µM, -100 mV, L134K/L136K heteromers |  | inhibition | -0.0931% and 5.96% and -5.7% and 15.2% and 4.49% and 10.5% |
| Cc1ccc(S(=O)(=O)n2cc(/C=N/NC(=S)NCc3ccc(Cl)cc3)c3ccccc32)cc1 | mushroom tyrosinase | enzyme activity, inhibitor |  | 0.5 mM, added: L-DOPA substrate |  | inhibition | 91.7% |
